Measurements pooled from the literature.
Protocols differ between the studies behind these lines. Numbers after ± are the reported error.
B1: CX3CL1 25-339 (Homo sapiens, UniProt P78423); sequence looked up; chain QHHGVTKCNITCSKMTSKIPVALLIHYQQNQASCGKRAIILETRQHRLFCADPKEQWVKDAMQHLDRQAAALTRNGGTFEKQIGEVKPRTTPAAGGMDESVVLEPEATGESSSLEPTPSSQEAQRALGTSPELPTGVTGSSGTRLPPTPKAQDGGPVGTELFRVPPVSTAATWQSSAPHQPGPSLWAEAKTSEAPSTQDPSTQASTASSPAPEENAPSEGQRVWGQGQSPRPENSLEREEMGPVPAHTDAFQDWGPGSMAHVSVVPVSSEGTPSREPVASGSWTPKAEEPIHATMDPQRLGVLITPVPDAQAATR
B2: PEX6 1-1030 (Saccharomyces cerevisiae, UniProt P33760); chain MKASLTFSLSGIYAPCSISRDIYLEYGDKKAECLYGTIRLPQYGPGCTPGKIVHCVLDDSLPFCSIVVPSKLFGFMPTQPTMDFCYFEPILDNVVPVLDSVTFLINEQLYSKLMDLPQEMQQIQFLHYKYNINSMETVVHSRDILTSGLCQILNCSPFPQGLVDFTETQLILVNDTEQKLSALKYANEDEEYALPKIGTNSALSIDLESLPCTISRDLLRPAPHINDDNSIYAFTDAETLLRLDVTSGSFITVSNMGCVRLVKLFVLLLPNGFKKRTIYAPPKIIASFPDCSVVTISKSNIGHTDIPIANQVFISRVGGWLQSQKCFQNIILTTLKKFFSESKRILCQNDLIPIAFDSSMADLNIAEENDESDDEDELGQYYKNDSLVWFFVTSAELDCFSKDNSHFIIDPNRTKLITTNITNRRPLPLSRSNLQRYYGFAETFYYDLHIFPYVRQLVNILETSFNCSQRGITLNASVLLHSTTNNVGKATMVRFASKYLGIHLLEIDCLSLTSNSRQLDSTSKIIGYIRAKCENVLPYASPAVIFLAHLDSILLDVNANQDPEAIKLQKSINFEMSKLLDDFTFKFPGTTFVGSVNNIDNVPSSFRSHMRFEILVPVPSEAQRLRIFQWYLSSHELNRDVQQKVPVSYMDNISFSSLSSYSAGLTPLDIKSIVETARMTATARFYQESKKCGWLPQSILITQEDLSKATSKARNEFSVSIGAPQIPNVTWDDIGGIDFVKGEILDTIDMPLKHPELFTSGMKKRSGILFYGPPGTGKTLMAKAIATNFSLNFFSVKGPELLNMYIGESEANVRRVFQKAREAKPCVIFFDEIDSVAPKRGNQGDSGGVMDRIVSQLLAELDGMSTDADGVFVIGATNRPDLLDEALLRPGRFDKLLYLGIPDTDTKQLNILEALTRKFVLDNDVKLIELAKLCPFNYTGADFYALCSDAMLNAMSRIARMVEKKVSQHNELTGENISTRRWFDKIATKEDTKVVVKMEDFLKAQEQLTPSVSRAELNHYEAVRANFEGA
UniProt G3V928, sequence (whole entry, looked up): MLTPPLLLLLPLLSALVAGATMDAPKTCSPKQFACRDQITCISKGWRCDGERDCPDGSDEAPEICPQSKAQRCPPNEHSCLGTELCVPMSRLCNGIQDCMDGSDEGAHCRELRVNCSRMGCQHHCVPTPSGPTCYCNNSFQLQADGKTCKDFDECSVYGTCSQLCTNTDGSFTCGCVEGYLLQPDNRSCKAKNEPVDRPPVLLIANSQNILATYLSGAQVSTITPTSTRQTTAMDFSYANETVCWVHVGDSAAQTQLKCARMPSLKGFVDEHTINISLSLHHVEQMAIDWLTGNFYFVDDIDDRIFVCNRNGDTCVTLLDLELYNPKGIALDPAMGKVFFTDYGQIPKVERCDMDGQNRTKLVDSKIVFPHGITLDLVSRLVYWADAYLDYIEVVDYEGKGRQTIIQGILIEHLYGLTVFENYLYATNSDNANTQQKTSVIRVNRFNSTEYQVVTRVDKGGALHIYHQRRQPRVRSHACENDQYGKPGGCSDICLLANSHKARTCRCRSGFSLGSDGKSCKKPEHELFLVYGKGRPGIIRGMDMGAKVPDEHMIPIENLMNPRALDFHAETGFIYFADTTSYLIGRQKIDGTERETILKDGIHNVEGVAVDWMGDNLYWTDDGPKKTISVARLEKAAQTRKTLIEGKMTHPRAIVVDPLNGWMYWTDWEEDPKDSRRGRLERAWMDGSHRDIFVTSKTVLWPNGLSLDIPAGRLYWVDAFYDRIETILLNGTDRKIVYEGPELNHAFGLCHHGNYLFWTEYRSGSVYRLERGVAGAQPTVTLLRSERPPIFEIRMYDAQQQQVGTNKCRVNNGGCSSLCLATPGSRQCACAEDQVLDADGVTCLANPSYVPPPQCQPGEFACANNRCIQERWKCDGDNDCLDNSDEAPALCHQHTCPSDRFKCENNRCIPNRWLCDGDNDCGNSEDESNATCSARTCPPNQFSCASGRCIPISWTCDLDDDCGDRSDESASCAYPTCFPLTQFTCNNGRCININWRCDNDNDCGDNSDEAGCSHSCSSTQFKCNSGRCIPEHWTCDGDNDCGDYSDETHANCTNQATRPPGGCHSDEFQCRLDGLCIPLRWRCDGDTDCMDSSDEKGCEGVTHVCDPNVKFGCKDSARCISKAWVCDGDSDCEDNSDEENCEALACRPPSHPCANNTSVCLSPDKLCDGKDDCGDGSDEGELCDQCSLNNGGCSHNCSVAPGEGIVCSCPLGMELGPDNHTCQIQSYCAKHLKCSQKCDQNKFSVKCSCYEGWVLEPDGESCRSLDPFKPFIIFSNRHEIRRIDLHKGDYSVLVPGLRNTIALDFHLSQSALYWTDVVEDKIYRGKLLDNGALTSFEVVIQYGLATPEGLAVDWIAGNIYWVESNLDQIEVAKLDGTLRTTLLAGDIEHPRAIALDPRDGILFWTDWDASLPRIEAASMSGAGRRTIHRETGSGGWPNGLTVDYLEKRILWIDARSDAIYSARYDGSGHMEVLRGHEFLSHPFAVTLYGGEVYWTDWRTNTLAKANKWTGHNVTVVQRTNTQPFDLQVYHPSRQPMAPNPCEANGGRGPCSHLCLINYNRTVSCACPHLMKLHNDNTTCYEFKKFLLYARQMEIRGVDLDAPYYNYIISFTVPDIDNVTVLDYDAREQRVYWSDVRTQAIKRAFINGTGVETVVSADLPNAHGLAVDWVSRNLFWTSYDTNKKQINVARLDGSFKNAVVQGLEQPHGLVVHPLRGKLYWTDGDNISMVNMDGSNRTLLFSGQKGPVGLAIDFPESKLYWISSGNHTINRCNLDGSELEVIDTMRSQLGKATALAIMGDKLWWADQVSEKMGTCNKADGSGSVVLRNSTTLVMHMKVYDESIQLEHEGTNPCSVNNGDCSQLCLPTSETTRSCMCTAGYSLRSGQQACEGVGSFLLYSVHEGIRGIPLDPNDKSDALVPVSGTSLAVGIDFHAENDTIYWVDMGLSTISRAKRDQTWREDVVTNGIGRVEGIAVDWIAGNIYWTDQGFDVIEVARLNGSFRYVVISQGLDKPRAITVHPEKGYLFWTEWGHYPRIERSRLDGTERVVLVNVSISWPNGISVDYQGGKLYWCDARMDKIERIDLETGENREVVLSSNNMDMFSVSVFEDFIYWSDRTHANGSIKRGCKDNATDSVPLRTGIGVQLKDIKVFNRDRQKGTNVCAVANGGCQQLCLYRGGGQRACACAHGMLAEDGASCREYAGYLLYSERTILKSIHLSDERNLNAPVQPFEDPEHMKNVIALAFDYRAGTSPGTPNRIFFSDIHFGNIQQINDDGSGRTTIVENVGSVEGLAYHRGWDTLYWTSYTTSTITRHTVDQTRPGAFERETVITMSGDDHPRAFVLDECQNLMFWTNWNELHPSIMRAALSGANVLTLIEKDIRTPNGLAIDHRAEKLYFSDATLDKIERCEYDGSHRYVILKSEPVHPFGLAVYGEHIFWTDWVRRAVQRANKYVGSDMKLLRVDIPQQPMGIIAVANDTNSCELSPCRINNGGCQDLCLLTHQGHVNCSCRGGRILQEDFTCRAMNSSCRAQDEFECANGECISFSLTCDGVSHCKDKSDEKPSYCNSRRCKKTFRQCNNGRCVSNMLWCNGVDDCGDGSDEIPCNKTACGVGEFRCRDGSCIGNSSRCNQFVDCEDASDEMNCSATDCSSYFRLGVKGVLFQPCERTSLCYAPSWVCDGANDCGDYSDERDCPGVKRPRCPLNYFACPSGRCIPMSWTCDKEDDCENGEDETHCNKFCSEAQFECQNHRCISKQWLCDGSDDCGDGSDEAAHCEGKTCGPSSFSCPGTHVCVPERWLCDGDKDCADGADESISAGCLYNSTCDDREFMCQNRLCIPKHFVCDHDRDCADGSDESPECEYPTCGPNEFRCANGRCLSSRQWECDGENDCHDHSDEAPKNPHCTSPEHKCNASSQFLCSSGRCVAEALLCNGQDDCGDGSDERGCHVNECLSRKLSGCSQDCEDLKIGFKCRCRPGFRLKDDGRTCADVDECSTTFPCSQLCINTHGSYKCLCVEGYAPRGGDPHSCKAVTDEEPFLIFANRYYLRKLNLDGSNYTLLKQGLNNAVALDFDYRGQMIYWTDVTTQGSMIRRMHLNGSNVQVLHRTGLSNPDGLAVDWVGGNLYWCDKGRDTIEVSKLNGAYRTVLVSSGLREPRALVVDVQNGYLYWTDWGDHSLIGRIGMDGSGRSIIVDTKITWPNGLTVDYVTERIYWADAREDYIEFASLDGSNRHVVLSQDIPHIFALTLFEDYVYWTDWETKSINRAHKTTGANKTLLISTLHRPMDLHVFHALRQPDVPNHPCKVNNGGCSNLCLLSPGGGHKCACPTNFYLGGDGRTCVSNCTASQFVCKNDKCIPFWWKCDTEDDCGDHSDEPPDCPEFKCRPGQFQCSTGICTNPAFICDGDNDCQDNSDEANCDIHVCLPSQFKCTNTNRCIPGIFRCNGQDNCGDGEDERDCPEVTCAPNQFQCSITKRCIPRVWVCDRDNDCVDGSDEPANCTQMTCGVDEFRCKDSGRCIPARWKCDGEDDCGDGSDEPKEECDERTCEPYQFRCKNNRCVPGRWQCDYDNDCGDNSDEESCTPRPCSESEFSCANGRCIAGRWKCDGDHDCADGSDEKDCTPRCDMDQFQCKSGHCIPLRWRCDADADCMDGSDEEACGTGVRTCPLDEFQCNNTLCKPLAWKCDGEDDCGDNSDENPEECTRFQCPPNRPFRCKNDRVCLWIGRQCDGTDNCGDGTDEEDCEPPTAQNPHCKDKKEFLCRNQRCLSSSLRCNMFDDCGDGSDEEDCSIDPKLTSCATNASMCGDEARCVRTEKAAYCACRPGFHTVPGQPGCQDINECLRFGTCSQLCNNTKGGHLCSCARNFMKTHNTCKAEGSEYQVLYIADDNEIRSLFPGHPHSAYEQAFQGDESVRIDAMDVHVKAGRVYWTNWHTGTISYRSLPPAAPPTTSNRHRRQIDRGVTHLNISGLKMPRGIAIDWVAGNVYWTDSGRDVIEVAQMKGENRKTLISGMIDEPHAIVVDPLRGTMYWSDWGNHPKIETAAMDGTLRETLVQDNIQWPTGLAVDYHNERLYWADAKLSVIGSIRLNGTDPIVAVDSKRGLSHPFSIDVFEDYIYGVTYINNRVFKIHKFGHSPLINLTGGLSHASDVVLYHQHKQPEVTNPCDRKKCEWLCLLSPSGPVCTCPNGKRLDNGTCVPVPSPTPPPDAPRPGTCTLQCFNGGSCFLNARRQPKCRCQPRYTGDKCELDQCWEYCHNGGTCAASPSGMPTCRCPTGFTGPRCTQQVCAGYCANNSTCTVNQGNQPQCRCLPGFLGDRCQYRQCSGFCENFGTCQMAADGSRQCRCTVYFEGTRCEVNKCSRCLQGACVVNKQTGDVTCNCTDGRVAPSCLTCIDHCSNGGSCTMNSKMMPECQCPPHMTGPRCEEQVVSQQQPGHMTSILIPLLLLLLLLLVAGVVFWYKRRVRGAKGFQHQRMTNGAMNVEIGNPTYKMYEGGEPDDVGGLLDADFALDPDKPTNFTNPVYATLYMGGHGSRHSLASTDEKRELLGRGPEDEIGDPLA
UniProt P97287, sequence (whole entry, looked up): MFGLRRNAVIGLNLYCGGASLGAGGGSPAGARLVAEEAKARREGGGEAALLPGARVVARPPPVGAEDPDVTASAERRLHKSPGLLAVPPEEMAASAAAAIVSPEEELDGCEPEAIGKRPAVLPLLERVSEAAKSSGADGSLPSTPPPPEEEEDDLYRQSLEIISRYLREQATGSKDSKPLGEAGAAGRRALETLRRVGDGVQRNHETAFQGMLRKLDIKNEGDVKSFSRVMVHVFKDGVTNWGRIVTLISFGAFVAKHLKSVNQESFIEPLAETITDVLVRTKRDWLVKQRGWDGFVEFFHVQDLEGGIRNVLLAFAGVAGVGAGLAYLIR
UniProt O14907, sequence (whole entry, looked up): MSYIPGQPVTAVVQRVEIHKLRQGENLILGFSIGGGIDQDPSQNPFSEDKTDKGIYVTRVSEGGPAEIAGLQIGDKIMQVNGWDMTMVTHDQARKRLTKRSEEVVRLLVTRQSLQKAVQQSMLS

Under “FRET fold increase”, `CTNNB1 (Homo sapiens, UniProt P35222)` is recorded as 1.5 fold (TAX1BP3 (Homo sapiens, UniProt O14907); FRET; A549; in cells; reference: donor-only bleed-through ratio, higher = more interaction).
`SERPINA1 (Homo sapiens, UniProt P01009)`: “second-order inhibition rate constant” 460 M⁻¹ s⁻¹ (Factor Xa mature, plasma-derived (Homo sapiens); inhibition kinetics, amidolytic activity).
`FGA (Homo sapiens, UniProt P02671)`: cross-linked residues “K437 to K968” (EHBP1L1 (Homo sapiens, UniProt Q8N3D4); cross-linking MS; with: DSSO).
The mRNA level of `Peginesatide` is reported as 35.1 fold (UT7/EPO; microarray, refers to: SOCS3 mRNA (probe set 227697_at); 20 nM, 90 min; reference: vehicle).
`B1 (CX3CL1 25-339)` has a Ki of 0.38 nM (CX3CR1 (Homo sapiens, UniProt P49238-4); AlphaScreen or HTRF).
Under binding, `B2 (PEX6 1-1030)` is recorded as “binds” (PEX1 1-1043 (Saccharomyces cerevisiae, UniProt P24004); pull-down; not purified).
Under cross-linked residues, `ALB (Homo sapiens, UniProt P02768)` is recorded as “K549 to K274” (ATP6V1C1 (Homo sapiens, UniProt P21283); cross-linking MS; with: DSSO).
The EC50 of `GLP-1/MC4 receptor agonist chimeric peptide, D-Ser position 2` is reported as 319 nM (Gipr (Rattus norvegicus, UniProt P43219); cAMP, agonist; HEK293; FRET biosensor, stably transfected).
`FGB (Homo sapiens, UniProt P02675)` — result for cross-linked residues: “K77 to K4060” (AHNAK2 (Homo sapiens, UniProt Q8IVF2); cross-linking MS; with: DSSO).
`MEKVQYLTRSAIRRASTIEMPQQARQKLQNLFINFCLILICLLLICIIVMLL (PLN fused to mCerulean3 or YFP (Homo sapiens, UniProt P26678))`: “association time constant” 3.58 s (SERCA2a (UniProt P16615-2); FRET; in cells).
The IC50 of `LGQSMDESGLPQLTSYDCEVNAPIQGSRNLLQGEELLRALDQVN (HIF1A CTAD (Homo sapiens, UniProt Q16665))` is reported as 830 nM (EP300 CH1 (Homo sapiens); FP competition; peptide).
The koff of `CALLLSAPRR (GOT2 (Gallus gallus); fluorescein label)` is reported as 0.00533 s⁻¹ (HSPA9 mature G489E (Homo sapiens, UniProt P38646); FP; peptide).
For `DYNLRB1/DYNLL1/DYNLT1/DYNC1LI2/DYNC1I2/DYNC1H1 dynein-1 complex (Homo sapiens)`, the Ka was less than 1.6e+06 M⁻¹ (KASH5/BICD2 chimera KASH5 CC, BicD2 LIC-BD 1-154, HaloTag; pull-down).
For `DYNC1H1 (Homo sapiens, UniProt Q14204)`, “cortical dynein loss half-time” read 29.5 min (NUMA1 1-705 (Homo sapiens, UniProt Q14980); time-lapse imaging; Flp-In T-REx mitotic; PLK1 inhibition, with: GSK461364).
For `ORC2 (Saccharomyces cerevisiae, UniProt P32833)`, interaction screen read “cross-linked” (ORC6 (Saccharomyces cerevisiae, UniProt P38826); cross-linking MS; hits only).
Under cross-linked residues, `MYO1B (Homo sapiens, UniProt O43795)` is recorded as “K3 to K620” (FGA (Homo sapiens, UniProt P02671); cross-linking MS; with: DSSO).
`PKLPPKTYKREH (SOS1 proline-rich peptide, 1303-1314)`: “chemical shift perturbation” 0.46 ppm (GRB2 156-215 (Homo sapiens, UniProt P62993); NMR titration; peptide).
For `GSGAGIATEV`, the binding intensity was 0.868 (human SCRIB PDZ3-4 tandem (MBP fusion); automated holdup; peptide, crude extract; concentration not given, uncorrected, unit not given; reference: biotin control resin, higher = stronger binding).
For `pegfilgrastim, PEGylated, about 39 kDa (Homo sapiens, UniProt P09919-2)`, the EC50 was 0.00046 µg/mL (CSF3R (Homo sapiens, UniProt Q99062); STAT3-driven luciferase reporter induction, agonist; 293-CSF3R; untreated control sample).
`SLC4A1 (Homo sapiens, UniProt P02730)` — result for cross-linked residues: “K360 to E67” (EPB42 (Homo sapiens, UniProt P16452); cross-linking MS; with: DSSO or DMTMM).
For `PKMYT1 (Homo sapiens, UniProt Q99640)`, the relative binding was 5.8 fold (CCNE1 low molecular weight form (Homo sapiens); affinity purification mass spectrometry; HEK293T; reference: FL-cycE, higher = more binding).
`MMP9 recombinant (Homo sapiens, UniProt P14780)` gave a relative migration of 2.5 fold (Lrp1 (Rattus norvegicus, UniProt G3V928); Schwann cell migration; Schwann cells; 10 nM, 4 h, with: fibronectin; reference: control, higher = more migration).
For `XRCC5 (Homo sapiens, UniProt P13010)`, cross-linked residues read “K265 to K650” (ARHGAP44 (Homo sapiens, UniProt Q17R89); cross-linking MS; cells; with: iqPIR).
`colistin` has an MIC of 32 µg/mL (Klebsiella pneumoniae; broth microdilution; clinical isolate RKI-No_320/16).
`TF (Homo sapiens, UniProt P02787)` — result for cross-linked residues: “K215 to K464” (KRT8 (Homo sapiens, UniProt P05787); cross-linking MS; with: DSSO).
With `EEEWAREAGAQLRRAADDLNAQYERRR (PUMA residues 130-156 M144A/I137A; N-acetyl, C-terminal amide)` the koff was 0.0138 ± 0.0005 s⁻¹ (Mcl1 152-308 (Mus musculus, UniProt P97287); SPR; peptide).
`FGG (Homo sapiens, UniProt P02679)` — result for cross-linked residues: “K231 to K1584” (LAMC1 (Homo sapiens, UniProt P11047); cross-linking MS; with: DSSO).
For `SEKHFRETEV`, “normalised SPR binding response” read 232 normalised RU (human SCRIB PDZ3-4 tandem (MBP fusion); surface plasmon resonance; peptide; concentration not given; higher = stronger binding).

Excerpt of the above:
`FGA (Homo sapiens, UniProt P02671)`: cross-linked residues “K437 to K968” (EHBP1L1 (Homo sapiens, UniProt Q8N3D4); cross-linking MS; with: DSSO).
The mRNA level of `Peginesatide` is reported as 35.1 fold (UT7/EPO; microarray, refers to: SOCS3 mRNA (probe set 227697_at); 20 nM, 90 min; reference: vehicle).
`B1 (CX3CL1 25-339)` has a Ki of 0.38 nM (CX3CR1 (Homo sapiens, UniProt P49238-4); AlphaScreen or HTRF).
